Literature values as cited in several papers.
Lines come from different studies, so protocols differ. Several values in a cell are separate wells, animals, samples, runs or records. Numbers after ± are the reported error. Bridge positions count the residues as written; N and C are the ends. Ends that are not written are not given here.
UniProt O88703, sequence (whole entry, looked up): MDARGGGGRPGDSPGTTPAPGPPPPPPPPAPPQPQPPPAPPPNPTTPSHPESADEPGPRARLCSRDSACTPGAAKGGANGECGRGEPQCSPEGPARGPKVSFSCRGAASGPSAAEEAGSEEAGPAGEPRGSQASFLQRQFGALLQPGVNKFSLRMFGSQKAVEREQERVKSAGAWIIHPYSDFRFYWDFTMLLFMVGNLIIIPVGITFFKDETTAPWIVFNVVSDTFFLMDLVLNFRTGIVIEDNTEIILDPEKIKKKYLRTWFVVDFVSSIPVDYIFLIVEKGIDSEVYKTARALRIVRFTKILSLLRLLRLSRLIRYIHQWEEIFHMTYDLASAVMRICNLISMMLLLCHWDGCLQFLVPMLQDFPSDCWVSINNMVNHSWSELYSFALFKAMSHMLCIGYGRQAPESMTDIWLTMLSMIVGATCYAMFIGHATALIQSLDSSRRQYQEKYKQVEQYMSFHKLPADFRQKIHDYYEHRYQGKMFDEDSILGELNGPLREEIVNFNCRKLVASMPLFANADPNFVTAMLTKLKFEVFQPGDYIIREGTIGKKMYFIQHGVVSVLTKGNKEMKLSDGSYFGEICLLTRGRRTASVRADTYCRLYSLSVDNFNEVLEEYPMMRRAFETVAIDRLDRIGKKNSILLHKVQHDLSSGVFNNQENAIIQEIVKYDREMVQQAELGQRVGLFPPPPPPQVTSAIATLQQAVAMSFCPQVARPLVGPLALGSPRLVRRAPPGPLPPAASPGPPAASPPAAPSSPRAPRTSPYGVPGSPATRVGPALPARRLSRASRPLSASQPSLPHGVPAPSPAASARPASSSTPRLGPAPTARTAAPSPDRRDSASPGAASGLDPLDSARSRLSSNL
UniProt P0AEE3, sequence (whole entry, looked up): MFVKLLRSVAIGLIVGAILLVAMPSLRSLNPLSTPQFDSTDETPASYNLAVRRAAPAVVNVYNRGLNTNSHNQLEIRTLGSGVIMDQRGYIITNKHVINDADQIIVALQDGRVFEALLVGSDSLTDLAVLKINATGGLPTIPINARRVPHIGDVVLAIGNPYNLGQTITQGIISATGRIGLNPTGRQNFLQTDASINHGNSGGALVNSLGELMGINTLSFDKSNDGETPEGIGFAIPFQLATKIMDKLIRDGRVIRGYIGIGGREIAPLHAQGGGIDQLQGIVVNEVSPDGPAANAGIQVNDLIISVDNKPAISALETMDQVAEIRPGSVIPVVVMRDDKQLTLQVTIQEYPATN
UniProt P0DW61, sequence (whole entry, looked up): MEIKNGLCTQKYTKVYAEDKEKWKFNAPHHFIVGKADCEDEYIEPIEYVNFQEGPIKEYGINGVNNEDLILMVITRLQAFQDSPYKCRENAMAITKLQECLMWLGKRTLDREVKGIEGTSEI

The Kd of `Nc1ncnc2c1ncn2[C@@H]1O[C@@H]2COP(=O)(O)OP(=O)(O)OC[C@H]3OC(O[C@@H]1[C@@H]2O)[C@H](O)[C@@H]3O` is reported as 241 nM (tad1 (Metaclostridioides mangenotii, UniProt P0DW61)).
For `CHPQFC (disulfide 1-6) (disulfide)`, the Kd was 270 nM (Streptavidin (Streptomyces avidinii, UniProt P22629); binding).
With `CCC(C)(C)C(=O)C(=O)N1CCCC[C@H]1C(=O)O[C@H](CCc1ccc(OC)c(OC)c1)c1cccc(OCC(=O)O)c1` the Kd was roughly 20 nM (FKBP; binding).
With `CSCC[C@H](NC(=O)[C@H](CC(C)C)NC(=O)[C@H](Cc1ccccc1)NC(=O)[C@H](CC(=O)O)NC(=O)[C@H](Cc1ccc(O)cc1)NC(=O)[C@H](Cc1c[nH]c2ccccc12)NC(=O)[C@@H](NC(=O)[C@@H](NC(=O)[C@H](CCCNC(=N)N)NC(=O)[C@@H](N)CO)C(C)C)[C@@H](C)O)C(=O)N[C@@H](CCC(=O)O)C(=O)N[C@@H](CC(=O)O)C(=O)N[C@H](C(=O)N[C@@H](CCCCN)C(=O)N[C@@H](CO)C(=O)N[C@@H](CCCNC(=N)N)C(=O)O)[C@@H](C)O` the Kd was 5100 nM (Gαs; binding, surface plasmon resonance).
`N=C(N)NCCC[C@H](NC(=O)[C@H](CC(N)=O)NC(=O)[C@H](CC(=O)O)NC(=O)[C@H](CCCCN)NC(=O)[C@H](CCCCN)NC(=O)CCNC(=S)Nc1ccc2c(c1)C(=O)OC21c2ccc(O)cc2Oc2cc(O)ccc21)C(=O)N[C@@H](CC(=O)O)C(=O)NCC(=O)N[C@@H](CC(N)=O)C(=O)N[C@@H](Cc1ccc(O)cc1)C(=O)N[C@@H](Cc1ccc(O)cc1)C(=O)N[C@@H](Cc1ccccc1)C(=O)O` gave a Kd of 4600 ± 300 nM (Serine endoprotease DegS (degS, Escherichia coli, UniProt P0AEE3); binding).
The Kd of `O=P(O)(O)OP(=O)(O)OP(=O)(O)OC[C@H]1O[C@@H](n2cnc3c(NCCc4ccccc4)ncnc32)[C@H](O)[C@@H]1O` is reported as 300 ± 30 nM (CFTR NBD1; binding, SPR or ITC).
`NC(=O)C1=CN([C@@H]2O[C@H](COP(=O)(O)OP(=O)(O)OC[C@H]3O[C@@H](n4cnc5c(N)ncnc54)[C@H](O)[C@@H]3O)[C@@H](O)[C@H]2O)C=CC1` gave a Kd of roughly 10 nM (S-adenosylhomocysteine hydrolase human; cofactor binding; concentration not given).
`O=C(N[C@H](CO)[C@H](O)c1ccc([N+](=O)[O-])cc1)C(Cl)Cl` gave a Kd of roughly 4000 nM (Escherichia coli chloramphenicol acetyltransferase III; binding, stopped-flow fluorometry; pH 7.5).
`C[S+](CC[C@H](N)C(=O)[O-])C[C@H]1O[C@@H](n2cnc3c(N)ncnc32)[C@H](O)[C@@H]1O` (stereo partly shown) has a Kd of 270000 ± 20000 nM (EgtD (Mycolicibacterium smegmatis); binding, isothermal titration calorimetry).
`OC[C@H]1O[C@H](O[C@H]2[C@H](O)[C@@H](O)C(O)O[C@@H]2CO)[C@H](O)[C@@H](O)[C@@H]1O` (mixture of isomers) has a Kd of roughly 1000 nM (maltose-binding protein E. coli).
`[K+]` gave a Kd of 330000 nM (Na+/K+-ATPase (human); binding; human erythrocytes; with: Na+ 150 mM).
`CCCC(=O)O[C@@H]1[C@@H](C)[C@@]2(O)[C@@H](C=C(CO)C[C@]3(O)C(=O)C(C)=C[C@@H]23)[C@@H]2C(C)(C)[C@]12OC(=O)CCC` has a Kd of 2.8 nM (PKC delta with C1b only; binding).
`cGMP` has a Kd of < 400 nM and ~400 nM (Potassium/sodium hyperpolarization-activated cyclic nucleotide-gated channel 2, C-terminal region (Hcn2, Mus musculus, UniProt O88703); binding, isothermal titration calorimetry; tetrameric protein, high-affinity site).

Excerpt of the above:
`[K+]` gave a Kd of 330000 nM (Na+/K+-ATPase (human); binding; human erythrocytes; with: Na+ 150 mM).
